Experimental data collected from several papers.
Each numbered part is a random draw from the data of one study; scales do not carry over between parts. Changes are numbered by the printed parent chain.

Block 1
Molecule: PhoQ, residues 284 288 289 292 302 303 TVTVVA
Method: Sort-seq
Refers to: YFP reporter
Matrix: E. coli
Setting: PhoQ-PhoP variant library
Together with: 10 µM Mg2+
Relative to: high Mg2+ state
Reading: higher = stronger signaling
The fold induction was 2.74 (PhoP, residues 12 14 15 18 19 ICWRQ (Escherichia coli, UniProt P23836)).
PhoP, residues 12 14 15 18 19 VHTVL (Escherichia coli, UniProt P23836) — fold induction: 5.35.
It gave 11.2 for fold induction (PhoP, residues 12 14 15 18 19 TQCLL (Escherichia coli, UniProt P23836)).

Block 2
Target: Sal-like protein 4, full length isoform B (SALL4, Homo sapiens, UniProt Q9UJQ4-2, residues 1-616)
Method: universal PBM
Form: double-stranded DNA, one strand shown
Matrix: in vitro
Concentration: not given
Setting: 8-mer, flanks averaged, mean of replicates
Reading: higher = stronger binding
Construct (chain): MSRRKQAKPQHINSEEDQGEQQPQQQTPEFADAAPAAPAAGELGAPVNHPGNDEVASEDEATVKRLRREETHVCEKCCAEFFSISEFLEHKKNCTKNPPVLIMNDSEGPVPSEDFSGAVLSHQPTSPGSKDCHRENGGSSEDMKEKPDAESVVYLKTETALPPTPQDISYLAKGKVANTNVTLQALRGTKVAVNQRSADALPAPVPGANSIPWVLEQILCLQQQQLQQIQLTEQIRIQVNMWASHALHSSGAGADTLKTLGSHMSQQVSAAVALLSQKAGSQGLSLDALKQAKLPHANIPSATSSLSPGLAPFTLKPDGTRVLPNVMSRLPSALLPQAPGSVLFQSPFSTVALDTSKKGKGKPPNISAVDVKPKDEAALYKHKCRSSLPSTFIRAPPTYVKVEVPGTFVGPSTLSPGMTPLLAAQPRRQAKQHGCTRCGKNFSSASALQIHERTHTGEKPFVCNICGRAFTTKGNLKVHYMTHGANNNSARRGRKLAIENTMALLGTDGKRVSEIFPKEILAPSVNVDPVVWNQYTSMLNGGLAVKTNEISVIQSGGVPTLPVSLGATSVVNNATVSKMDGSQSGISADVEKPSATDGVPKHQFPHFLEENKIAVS
For `AATTCGAA`, the E-score was 0.189.
With `ACTTAACA` the E-score was 0.0854.
For `AGACCAGA`, the E-score was 0.125.
For `CTGAATTA`, the E-score was 0.212.
`TCACCCCA` gave an E-score of -0.00966.
`AACAGGGC` has an E-score of -0.2.
With `AACCCATT` the E-score was 0.0472.
With `ATTTGCAG` the E-score was 0.183.
`CCCACTCC` has an E-score of -0.179.
With `AACAAAGT` the E-score was 0.103.
For `AAATGGCG`, the E-score was 0.0738.
`GCTTAAAC` has an E-score of 0.0527.
`TCCTAGGA` has an E-score of -0.247.
`GGACACCA` gave an E-score of -0.0323.
The E-score of `AGGATAGA` is reported as 0.0505.
`ACGGTTCG` has an E-score of -0.16.
For `CACTGTTA`, the E-score was 0.0346.
The E-score of `ACCTTCTA` is reported as 0.14.
`ACGAGTCC` gave an E-score of -0.141.
`CTGGTTTC` gave an E-score of -0.164.
The E-score of `AGTATTAA` is reported as 0.355.
The E-score of `GTCACATA` is reported as 0.244.
`GAGCTCGA` has an E-score of -0.151.

Block 3
Target: RNA binding protein fox-1 homolog 2, RRM domain, GST-SBP tag (RBFOX2, Homo sapiens, UniProt O43251-10, residues 100-194)
Method: RNA Bind-n-Seq
Form: RNA
Matrix: in vitro
Concentration: 365 nM
Setting: natural RNA segment, single round, ends assumed
Relative to: no-protein control
Reading: higher = stronger binding
Residues (chain): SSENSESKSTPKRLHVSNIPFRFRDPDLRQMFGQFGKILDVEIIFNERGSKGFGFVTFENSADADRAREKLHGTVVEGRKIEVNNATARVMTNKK
For `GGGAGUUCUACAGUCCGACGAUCUGAUGGGCAGGCAUUUCCCUGGAAAGGGGGUGAACUACCUACCUCUCCUCAAGACAGCCGAAGGGUGGGAUUGGUGCCGCUCUGGGAAGCGUGGCCCCAGGAGUUUUGUCUGGAAUUCUCGGGUGCCAA`, “RBNS enrichment (R)” read 0.328.
`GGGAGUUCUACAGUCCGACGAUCCCACUUUAAAGGACAAAAGCCAGAGCUCAGCUUUAUCCCUCUCCCAGUGCUGGGAGCCAAAAAACUGUUGACGGUUUUUUGUGCAGCUCAAGAAAACUUUGAAAAGAACAUGGAAUUCUCGGGUGCCAA` — result for “RBNS enrichment (R)”: 0.468.
`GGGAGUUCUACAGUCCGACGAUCAUGCCUCAGGAUCUUGUUUCUGACACCAGAAUGCAACAGAUGAGAAGCUUUUUGGUGUGAACUGGAAAAAAAAAAAAGGUGCAUUUUUCUCCGUGAAGGUCUUAGUGUAUUGGAAUUCUCGGGUGCCAA`: “RBNS enrichment (R)” 0.555.
`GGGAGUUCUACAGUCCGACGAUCGGAAAAAGGAUUUCCCUUUAAGGGAGCAAUCUAAGAUAGUCUCUGAAAGGCAGAAAGUUUACAAAUUAGACACUGGGUAUUUUUUAAGAACCUUCAGUGGAAGCAUGUCAUGGAAUUCUCGGGUGCCAA`: “RBNS enrichment (R)” 8.49.
Under “RBNS enrichment (R)”, `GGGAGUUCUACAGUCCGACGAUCCAGUUUAUGGAUAUGCUGCUUUAAACUUGGAAGGGGGAGACAGGAAGUUUUAAUUGUUCUGACUAAACUUAGGAGUUGAGCUAGGAGUGCGUUCAUGGUUUCUUCACUAAUGGAAUUCUCGGGUGCCAA` is recorded as 0.391.
Under “RBNS enrichment (R)”, `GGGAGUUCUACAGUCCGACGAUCAUCUUUGCACAUGUGACCAUGCUGUGUUAGGGGCUGUGUUCCAGGGACUGGACUCGAAGCUAGAACUGGCAGAAGAGUUCUGGCAUCCACAGCGCAAUGCUGCCACCACCUGGAAUUCUCGGGUGCCAA` is recorded as 0.801.
For `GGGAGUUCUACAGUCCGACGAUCUCACUUUUGUUUUAAAGUGGUCCCUCCAAGAAUAAUGUGGCAUACACAGUGGGUUUGGUUGUAAGGCAGAUGUAAUAGAUGACUUCAAAAGCCUGCUCCUUACUGCACUCUGGAAUUCUCGGGUGCCAA`, “RBNS enrichment (R)” read 0.331.
`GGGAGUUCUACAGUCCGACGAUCGUGCAAAUGUACUAUAGCAGUUCAUCUUCAUGUUCCAGCCUUACUCUGUGUUAAUACUGCUUCACAAUUCUGAAUGGCUGUGUUCUCUUAAAUAAAUGCAUUCAAAGAAAUGGAAUUCUCGGGUGCCAA`: “RBNS enrichment (R)” 0.951.
For `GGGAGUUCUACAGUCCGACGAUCCAGUAGAUACUGGCGUGUGGAGAUUCACAGACGACCUCAGCACCCAUCCCACCAGGUCCCUGGACUCACGGCCUUUCCUUCAUUUGCCAUUCACAUUGCUGCUCACAAAAUGGAAUUCUCGGGUGCCAA`, “RBNS enrichment (R)” read 0.37.
For `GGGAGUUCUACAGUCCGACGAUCACACCAUCCAGUAUUCAAAGCAUCCCCCGCCGUUGUGCCACUUUUGCCCACCUCUUCUGCGUGCCCCUCUUCUGUCUCAUAGUUGUGUUAAGCUUGCGUAGAAUUGCAGGUGGAAUUCUCGGGUGCCAA`, “RBNS enrichment (R)” read 1.24.
Under “RBNS enrichment (R)”, `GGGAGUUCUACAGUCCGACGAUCCGGAUGCCCCCACCACCUGGACAGAGGCCACACUGACUGCCCACCCAGCUGUGGCGGGAGGUGCAGAGCAGAGGGCUUUAGGGAGCAGUGACUGCGGUCACCCCUUUAGUUGGAAUUCUCGGGUGCCAA` is recorded as 0.274.
`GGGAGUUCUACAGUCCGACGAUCUUGUUUAGGAAUAGCUACAUACCGAAGGGCUUCUAUACAUGAAUUCUAGGGGCAAAAGCCUUUUGUAGAAACCUGCACACUGCAUUCCAUCUGGGUUUUAAGUUCAGAUGUGGAAUUCUCGGGUGCCAA` — result for “RBNS enrichment (R)”: 0.447.

Block 4
Target: CREBZF, bZIP domain (human)
Method: DHFR protein complementation
Matrix: yeast
Setting: single substitutions, most at no-binding floor
Relative to: wild-type JUN-FOS pair
Reading: higher = stronger binding
Starting sequence: JUN, bZIP domain (human); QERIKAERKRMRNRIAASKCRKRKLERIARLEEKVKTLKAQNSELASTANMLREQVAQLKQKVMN; partner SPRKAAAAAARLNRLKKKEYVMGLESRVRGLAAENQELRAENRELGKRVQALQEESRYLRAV
With `S47G` the binding fitness was -1.36 natural log.
`E32P` gave a binding fitness of -1.52 natural log.
With `M51L` the binding fitness was -1.47 natural log.
`N42K` gave a binding fitness of -1.58 natural log.
`M51R` gave a binding fitness of -1.42 natural log.
With `T37Y` the binding fitness was -1.48 natural log.
With `L38C` the binding fitness was -1.54 natural log.
The binding fitness of `R30Q` is reported as -1.48 natural log.
The binding fitness of `S43C` is reported as -1.46 natural log.
`M51V` gave a binding fitness of -1.44 natural log.
With `E54G` the binding fitness was -1.36 natural log.
`Q41M` gave a binding fitness of -1.45 natural log.
`L59S` has a binding fitness of -1.44 natural log.
For `V35G`, the binding fitness was -1.5 natural log.
The binding fitness of `E33S` is reported as -1.32 natural log.
`E44V` has a binding fitness of -1.42 natural log.
With `L52F` the binding fitness was -1.58 natural log.
`V56R` has a binding fitness of -1.36 natural log.
`N42I` has a binding fitness of -1.5 natural log.
The binding fitness of `A40L` is reported as -1.5 natural log.
With `M51N` the binding fitness was -1.43 natural log.
`A57S` has a binding fitness of -1.46 natural log.

Excerpt of the above (block 4):
`Q41M` gave a binding fitness of -1.45 natural log.
For `V35G`, the binding fitness was -1.5 natural log.
With `E54G` the binding fitness was -1.36 natural log.
The binding fitness of `A40L` is reported as -1.5 natural log.
`V56R` has a binding fitness of -1.36 natural log.
`L59S` has a binding fitness of -1.44 natural log.
